Published values of several laboratories.
Numbered parts are unrelated; each lists some results of a single study.

Set 1 — technique: RNA Bind-n-Seq; molecule type: RNA; medium: in vitro; tested at: 1 µM; setting: whole 134-nt RNA, ends assumed; together with: 150 mM KCl; baseline: input library; reading: higher = stronger binding; measurement: log2 enrichment
Target: Ras GTPase-activating protein-binding protein 1, RRM domain (G3BP1, Homo sapiens, UniProt Q13283)
Sequence of UniProt Q13283 (whole entry, looked up): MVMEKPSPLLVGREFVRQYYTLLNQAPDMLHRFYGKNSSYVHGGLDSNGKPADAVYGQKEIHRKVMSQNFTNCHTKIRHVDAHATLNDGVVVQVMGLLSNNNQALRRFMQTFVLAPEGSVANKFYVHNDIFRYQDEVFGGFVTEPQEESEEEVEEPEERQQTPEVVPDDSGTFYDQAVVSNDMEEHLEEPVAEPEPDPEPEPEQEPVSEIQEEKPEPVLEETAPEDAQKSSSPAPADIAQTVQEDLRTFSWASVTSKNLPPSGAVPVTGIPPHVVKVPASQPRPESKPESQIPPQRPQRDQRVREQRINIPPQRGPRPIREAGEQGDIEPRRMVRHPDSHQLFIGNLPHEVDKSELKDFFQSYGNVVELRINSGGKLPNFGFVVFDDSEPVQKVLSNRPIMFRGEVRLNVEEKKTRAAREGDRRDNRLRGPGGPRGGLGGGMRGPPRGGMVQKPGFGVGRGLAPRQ
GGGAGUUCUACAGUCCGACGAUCGCAGGAAGUAAAAACAAAUGGAAAUGCUUCGGAUAGUGGCAGGGGUGGGGGUUUCUAAGGAAAGGGUGGGAUGGGAGUGGGUAAAGAGUUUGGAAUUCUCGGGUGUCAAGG: 0.813
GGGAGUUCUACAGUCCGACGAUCUCCUGUGCUACACAUCGUAUGUACCGAAUCGGGGAAAAAGGGAAAAAGGGGAAAAAGGGGAAAGUAUUAUGUUACGCCGUUCGGAUCUGCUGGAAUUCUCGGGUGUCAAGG: 0.0892
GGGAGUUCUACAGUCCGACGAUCGUCCUGUGCUACACAUCGUAUGUACCGAAUCGGGAAAAAGGGUUUUUGGGUUUUUGGGAAAGUAUUAUGUUACGCCGUUCGGAUCUGCACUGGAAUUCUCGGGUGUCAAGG: 0.062
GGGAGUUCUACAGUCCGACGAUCCAAGUCCUGUGCUACACAUCGUAUGUACCGAAUCGGAAAAAAAGGUUUUUGGUGGAAAGUAUUAUGUUACGCCGUUCGGAUCUGCACUUCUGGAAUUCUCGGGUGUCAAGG: -0.215
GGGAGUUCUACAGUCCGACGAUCGUCCUGUGCUACACAUCGUAUGUACCGAAUCGGGGAAAAAGGAAAAAGGGGAAAAAGGGAAAGUAUUAUGUUACGCCGUUCGGAUCUGCAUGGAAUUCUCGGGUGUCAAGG: -0.012
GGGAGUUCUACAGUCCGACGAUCGGUGUUGCUGGAAGAAGCCAAGGAUUUGCUCUCUGACUGGCUGGAUUCUACACUUGGCUGUGAUGUCACUGACAAUUCCAUCUUCUCCAAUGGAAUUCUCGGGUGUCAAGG: -0.117
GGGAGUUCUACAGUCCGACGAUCUGGGAGGUGGAUUUUGUUUAUUUUUUUAGCUCAUUUCCAGGGGUGGGAAUUUUUUUCUAAUAUGUGUCAUGAAUAAAGUUGUUUUUGAAAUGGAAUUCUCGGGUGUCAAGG: 1.15
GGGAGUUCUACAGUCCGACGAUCCAAACUUAAAGUCUCCCUUGCUCGGAAGAAGCCUCCAAUGAACAGUAUGCGGGGUGGUCUGCCACCCCGUGAGGGCAGAGGCAUGCCACCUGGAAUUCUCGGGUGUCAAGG: -0.334
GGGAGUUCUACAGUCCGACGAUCCUGUGCUACACAUCGUAUGUACCGAAUCGGCCCCCCCGGGGCCCCCCCGGGGCCCCCCCGGGAAAGUAUUAUGUUACGCCGUUCGGAUCUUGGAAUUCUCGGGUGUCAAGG: -0.621
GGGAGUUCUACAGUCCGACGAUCGUCCUGUGCUACACAUCGUAUGUACCGAAUCGGGCCCCCGGGGCCCCCGGGCCCCCGGAAAGUAUUAUGUUACGCCGUUCGGAUCUGCACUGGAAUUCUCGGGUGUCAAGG: -0.685
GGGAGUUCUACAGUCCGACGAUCACCAUGCAGGAAAGCAUCUUUGGGAAGUGGGGCAAGGGGGGGAUAGGGAGGGGGGUAACACUUUGGGAACAGGUGGUCCCAGGUCGUUUCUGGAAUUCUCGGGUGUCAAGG: -0.391
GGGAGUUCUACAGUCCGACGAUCCCUGUGCUACACAUCGUAUGUACCGAAUCGGUUUUUUUGGGUUUUUUUGGGUUUUUUUGGAAAGUAUUAUGUUACGCCGUUCGGAUCUGCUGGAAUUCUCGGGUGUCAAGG: -0.123
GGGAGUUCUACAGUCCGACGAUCUGGGGGGUGGAUUUUGUUUAUUUUUUUAGCUCAUUUCCAGGGGUGGGAAUUUUUUUUUAAUAUGUGUCAUGAAUAAAGUUGUUUUUGAAAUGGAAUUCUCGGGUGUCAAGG: 2.04
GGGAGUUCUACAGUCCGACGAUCUCAAGUCCUGUGCUACACAUCGUAUGUACCGAAUCGGGGUGGGGUGGGGAGGGGAAAGUAUUAUGUUACGCCGUUCGGAUCUGCACUUCCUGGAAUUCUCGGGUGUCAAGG: 0.783

Set 2 — technique: RNA Bind-n-Seq; molecule type: RNA; medium: in vitro; tested at: not given; baseline: input RNA pool; reading: higher = stronger binding; measurement: bound/input enrichment
Target: RING finger protein unkempt homolog, zinc fingers 1-6, GST-SBP tag (UNK, Homo sapiens, UniProt Q9C0B0, residues 30-357)
Sequence of UniProt Q9C0B0 (30-357, looked up): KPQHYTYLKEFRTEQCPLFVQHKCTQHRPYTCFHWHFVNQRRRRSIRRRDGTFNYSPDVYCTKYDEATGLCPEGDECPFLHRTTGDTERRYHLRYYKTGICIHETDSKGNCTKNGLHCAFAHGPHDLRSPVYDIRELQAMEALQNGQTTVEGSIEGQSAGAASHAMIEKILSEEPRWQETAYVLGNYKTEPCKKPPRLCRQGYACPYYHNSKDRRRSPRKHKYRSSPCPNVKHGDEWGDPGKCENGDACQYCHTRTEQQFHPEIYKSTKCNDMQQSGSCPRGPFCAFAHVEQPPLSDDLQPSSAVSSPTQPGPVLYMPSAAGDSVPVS
Setting: RNA with constant flanks, human-mouse chimeric sites, ends assumed
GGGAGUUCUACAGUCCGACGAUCCCUGCUCAGAUCACCAUGAAAGUAAUCCAAGGCCUAUAUAGUGGGGUCACCACAGUGGAACUAGAUACCCUGGCUGCUGAGACAGCCGCGACCUUGACUACUAAGCACCCUGACUAUGCCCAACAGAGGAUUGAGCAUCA: 0.164 ratio
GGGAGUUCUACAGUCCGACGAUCAAAGAGUGGAUAGAGUGUGCACACGGGAUCGGUGGGACUCGGGCAGAGAAAGAGUGCAAGAUAGAGUUCGAUGACUUCGAAGAGUGCUUGCUUCGGUACAAAACGAUGAGGCGAAUGCAUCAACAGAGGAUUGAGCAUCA: 0.463 ratio
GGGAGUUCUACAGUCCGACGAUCCAGCCUCAGAGCCCAGACUUCCUGGACAUUACCAACCCUAAAGCGGUAUUAGAAAAUGCAUUGAGAAACUUUGCCUGUCUGACGACUGGAGAUGUGAUUGCUAUCAACUACAAUGAGAAGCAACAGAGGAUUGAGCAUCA: 0.469 ratio
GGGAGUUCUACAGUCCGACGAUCCUUUUUAAGAAGAUAUGUGAUGGGAUCUUCUAUACCCCUCAGUACUUAAACCCUUCAGUAAUCAGCCUUUUGAAACAUAUGCUGCAGGUGGAUCCCAUGAAGAGGGCCGCAAUAAAAGAUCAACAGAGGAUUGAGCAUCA: 0.221 ratio
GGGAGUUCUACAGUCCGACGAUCCUAAUCCCCUUUACUGCUCCCCCACUUCUCAUGGUAAUAACAAAGUCUUAUAUCCCCGUCCUAGCUUUUACUCAGAUGGCUUAUGGAGCCGGUUUCCUAGCUUUCUUGGGAGGGAUCAGACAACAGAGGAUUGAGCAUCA: 0.745 ratio
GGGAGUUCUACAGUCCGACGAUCCUGGCACUGUAUCAGAUAUAUUAAUUUUUUAAUGUAGAUAAAAUUUCAAAAAUGAAUGGCUACUUUACACGUUUAACUAGGGUUUUACUAUAUAUGUGUACAUAUGUAUAUAUAUAUAUACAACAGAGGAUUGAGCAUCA: 8.04 ratio
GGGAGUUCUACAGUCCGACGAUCCCCCACAACCAUUUGCAGGUCUGGAACUGCACUCUCUUUUUUAAAAAACAUGUAUACAUUUUAGGGCUGUAGAUUUAUUUUCCUGGUUUUGUUUUUCAUUGCUGACUUUUGAGCACAGAACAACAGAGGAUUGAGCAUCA: 1.7 ratio
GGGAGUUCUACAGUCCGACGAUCGCUCCUCCCCGCUCUGCAGCCUGGGGACACUGGGCUGGGACCAGAAUCCAGCUUUCUUUUAAAACUCUCAGUGUAACUGUAUCCCGUUUUUUUCUUUUUUUUUUAAAUAGUGUAUUUUUUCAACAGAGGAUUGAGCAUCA: 15.4 ratio
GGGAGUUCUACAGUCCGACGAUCUUUCUACUGCAGCAAACGAUGCUAAGAAUUAAGGAUCCUAAGAAGUCCCUGGAUUUUUAUACGAGGGUUCUUGGACUGACCCUCCUGCAAAAAUGUGAUUUUCCCAUUAUGAAGUUCUCGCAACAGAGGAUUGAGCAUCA: 0.274 ratio
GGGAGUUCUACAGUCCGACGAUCAGAAUCUUGGGACUGUUUUACUUAAUUGGUCAUUGAUAGCUUAACAAGCAUGGAGAUAAGAUUAGAAAUCUUGACAUCAACAGGUAUCAAGCAGAAAAAACCAUGGCCACGUGUCUCCUGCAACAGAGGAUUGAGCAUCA: 0.127 ratio
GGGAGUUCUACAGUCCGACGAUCACACAAUAUGAGACCAACAGCAUGGACUUCAAAGUUGGGGCAGAUGGGACAGUCUUCGCCACCCGGGAGUUGAAGAUCCCCUCAGAGCAGGUGGCGUUCACGGUGACUGCAUGGGACAGCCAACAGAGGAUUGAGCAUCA: 0.265 ratio

Set 3 — technique: protein-binding microarray; molecule type: double-stranded DNA, one strand shown; medium: in vitro; tested at: 250 nM; setting: 60-bp whole probe; together with: salmon DNA 0.4 mg/ml; baseline: random background probes; reading: higher = stronger binding; measurement: log fluorescence; constant ends, left off below: GCCTAGCAC … GTCTTGATTCGCTTGACGCTGCTG
Target: Interferon regulatory factor 7, full length, phosphomimetic (IRF7, Homo sapiens, UniProt Q92985, residues 1-503, S101K/S471D/S472D/S475D/S476D/S477D/S483D/S484D/S487D)
Construct (chain): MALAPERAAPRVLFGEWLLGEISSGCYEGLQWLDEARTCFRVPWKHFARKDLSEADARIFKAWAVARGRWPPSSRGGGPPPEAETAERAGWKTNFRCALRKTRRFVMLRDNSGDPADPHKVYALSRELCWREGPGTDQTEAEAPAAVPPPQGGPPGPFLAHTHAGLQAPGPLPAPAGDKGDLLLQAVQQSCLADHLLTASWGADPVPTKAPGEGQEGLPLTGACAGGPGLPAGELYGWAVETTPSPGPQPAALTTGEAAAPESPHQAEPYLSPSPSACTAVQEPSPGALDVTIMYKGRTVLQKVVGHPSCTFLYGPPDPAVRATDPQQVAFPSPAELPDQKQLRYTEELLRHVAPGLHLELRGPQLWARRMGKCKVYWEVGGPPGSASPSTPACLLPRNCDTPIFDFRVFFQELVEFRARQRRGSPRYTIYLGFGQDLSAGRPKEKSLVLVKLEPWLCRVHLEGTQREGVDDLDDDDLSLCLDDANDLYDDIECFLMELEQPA
TTAGATTTCAGACTGGATTCGTGCTAG: 0.358 z-score
TTAGATTCCAGACTGGATTAGTGCTAG: 0.594 z-score
TTAGGTTTCGCCTATCGGTTAGTGCTA: 3.84 z-score
TTAGATTCCACTTTCGATTAGTGCTAG: 5.48 z-score
GACGAACGGGGGTATCGAGACGTGCTA: 0.605 z-score
GAGTTTCCATTTTCTGAATGCGTGCTA: 9.8 z-score
TTAGTTATCGGACTGGGTTAGTGCTAG: 0.472 z-score
GACGGTTCCGGTTTCCGGACGTGCTAG: 6.97 z-score
GACGGTATCGACTATCGGGATGTGCTA: -0.355 z-score
CTGTTTTTGCTTTCTTTTTGGTGCTAG: 3.17 z-score
TCAAACTTGTGTTTGTCACTGTGCTAG: -0.489 z-score
CCAAATCTGTGTTATTAAAATGTGCTA: 0.285 z-score
AGCTCTTTCGTTACTTCCTCGTGCTAG: 0.706 z-score
GACGGTTCCGGTTTCGAGACGTGCTAG: 7.94 z-score
GACGGTTTCGGTCTCAGGACGTGCTAG: 8.01 z-score
GACGGACTGGACACTGGGTACGTGCTA: -0.658 z-score
TTAGATTTCAGTCTCGATTTGTGCTAG: 5.76 z-score

Set 4 — technique: protein binding microarray; molecule type: double-stranded DNA, one strand shown; medium: in vitro; tested at: not given; baseline: not given; reading: higher = stronger binding; measurement: E-score
Target: Histone acetyltransferase KAT6A, winged helix 1, GST fusion (KAT6A, Homo sapiens, UniProt Q92794, residues 1-85)
Setting: 8-mer, flanks averaged, mean of 2 arrays, mostly near background
Residues (chain): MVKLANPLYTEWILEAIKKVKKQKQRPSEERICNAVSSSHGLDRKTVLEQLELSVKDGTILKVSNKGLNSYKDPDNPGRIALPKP
ACTTCTGG: -0.196
GATCCGCA: 0.158
GTCTGCAA: -0.17
CTGAATCA: -0.192
CTTTTAGA: 0.00358
GTCGCGAA: 0.172
AGGGCTTG: -0.0913
AATACGGA: 0.152
ACTCTCAC: -0.0411
CCTTGTCC: -0.0574
GTCTTGTA: -0.103
GACTCCTA: -0.126
AAACGGGA: 0.203
ACGCTCAC: 0.136
GGACTTTA: 0.0153
AAAACGGT: 0.0672
ATTCTCTG: -0.00353
AGCTTCAT: -0.0485
GACAGATC: -0.129
ACTGGATC: -0.0585
CGAATGCC: 0.258
GATCATCC: -0.0481
AACGCTTG: -0.0602
GGTGCCCA: -0.00671
ATGGCAGG: -0.0615

Excerpt of the above (set 4):
GTCGCGAA: 0.172
AGGGCTTG: -0.0913
AATACGGA: 0.152
ACTCTCAC: -0.0411
